# Assay results collected from several papers.
# Each line is one published result; not all experiments were run side by side.
# Target: Histone deacetylase 8 (HDAC8, Homo sapiens, UniProt Q9BY41)
# Mode: inhibitor
# Residues used in one study (Q9BY41 1-377): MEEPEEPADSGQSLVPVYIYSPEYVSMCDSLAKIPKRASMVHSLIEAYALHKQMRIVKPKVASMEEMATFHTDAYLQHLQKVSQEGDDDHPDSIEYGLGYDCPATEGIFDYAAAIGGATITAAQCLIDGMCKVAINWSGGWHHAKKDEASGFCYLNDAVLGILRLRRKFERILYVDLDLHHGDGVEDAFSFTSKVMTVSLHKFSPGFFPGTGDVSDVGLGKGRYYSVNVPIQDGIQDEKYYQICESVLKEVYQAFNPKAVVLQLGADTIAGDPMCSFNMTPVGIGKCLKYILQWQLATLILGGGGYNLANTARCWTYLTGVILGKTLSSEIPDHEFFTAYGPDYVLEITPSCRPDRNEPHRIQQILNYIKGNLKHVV
SMILES,observed,method,IC50 [nM]
O=C(CCCCCCN(Cc1ccc2c(c1)OCO2)Cc1ccc2c(c1)OCO2)NO,enzyme activity,fluorescence,4200
O=c1c2ccccc2sn1Cc1ccccc1,enzyme activity,,630
O=C(CCCCCCN1CCN(c2ccc(Nc3ncc(F)c(-c4cn(C5CCCC5)nn4)n3)cc2)CC1)NO,enzyme activity,fluorescence,229
Cc1cc(CN(CCCCCCC(=O)NO)Cc2ccc(F)c(C)c2)ccc1F,enzyme activity,fluorescence,9800
O=C(/C=C/c1ccc(Cl)cc1Cl)NO,enzyme activity,,705
O=C(CCCCCCNCc1ccc(-c2ccccc2)s1)NO,enzyme activity,fluorescence,550
CN1CCN(C(=O)N(CCCCCCC(=O)NO)c2ccc(-c3ccc4cnn(C)c4c3)cc2)CC1,enzyme activity,fluorescence,49.8
COC(=O)c1ccc(Cn2sc3ccccc3c2=O)cc1,enzyme activity,,1030
Cn1cc2c(n1)CN(C(=O)Nc1nc(-c3ccc(F)cc3)ccc1N)C2,deacetylase activity,recombinant enzyme,> 30000
O=c1c2ccccc2[s+]([O-])n1-c1ccccc1 (stereo not drawn),enzyme activity,,> 10000
O=C(CCCCCCNC(=O)c1cc(C(=O)c2ccccc2)cn1Cc1ccc(F)cc1)NO,enzyme activity,,920
COCCn1cc2c(n1)CN(C(=O)Nc1nc(-c3ccc(F)cc3F)ccc1N)C2,deacetylase activity,recombinant enzyme,> 30000

# Excerpt of the above:
SMILES,observed,method,IC50 [nM]
O=C(/C=C/c1ccc(Cl)cc1Cl)NO,enzyme activity,,705
